Published values pooled from the literature.
Parts stem from different laboratories: compare values within a part only.
UniProt O95819, sequence (whole entry, looked up): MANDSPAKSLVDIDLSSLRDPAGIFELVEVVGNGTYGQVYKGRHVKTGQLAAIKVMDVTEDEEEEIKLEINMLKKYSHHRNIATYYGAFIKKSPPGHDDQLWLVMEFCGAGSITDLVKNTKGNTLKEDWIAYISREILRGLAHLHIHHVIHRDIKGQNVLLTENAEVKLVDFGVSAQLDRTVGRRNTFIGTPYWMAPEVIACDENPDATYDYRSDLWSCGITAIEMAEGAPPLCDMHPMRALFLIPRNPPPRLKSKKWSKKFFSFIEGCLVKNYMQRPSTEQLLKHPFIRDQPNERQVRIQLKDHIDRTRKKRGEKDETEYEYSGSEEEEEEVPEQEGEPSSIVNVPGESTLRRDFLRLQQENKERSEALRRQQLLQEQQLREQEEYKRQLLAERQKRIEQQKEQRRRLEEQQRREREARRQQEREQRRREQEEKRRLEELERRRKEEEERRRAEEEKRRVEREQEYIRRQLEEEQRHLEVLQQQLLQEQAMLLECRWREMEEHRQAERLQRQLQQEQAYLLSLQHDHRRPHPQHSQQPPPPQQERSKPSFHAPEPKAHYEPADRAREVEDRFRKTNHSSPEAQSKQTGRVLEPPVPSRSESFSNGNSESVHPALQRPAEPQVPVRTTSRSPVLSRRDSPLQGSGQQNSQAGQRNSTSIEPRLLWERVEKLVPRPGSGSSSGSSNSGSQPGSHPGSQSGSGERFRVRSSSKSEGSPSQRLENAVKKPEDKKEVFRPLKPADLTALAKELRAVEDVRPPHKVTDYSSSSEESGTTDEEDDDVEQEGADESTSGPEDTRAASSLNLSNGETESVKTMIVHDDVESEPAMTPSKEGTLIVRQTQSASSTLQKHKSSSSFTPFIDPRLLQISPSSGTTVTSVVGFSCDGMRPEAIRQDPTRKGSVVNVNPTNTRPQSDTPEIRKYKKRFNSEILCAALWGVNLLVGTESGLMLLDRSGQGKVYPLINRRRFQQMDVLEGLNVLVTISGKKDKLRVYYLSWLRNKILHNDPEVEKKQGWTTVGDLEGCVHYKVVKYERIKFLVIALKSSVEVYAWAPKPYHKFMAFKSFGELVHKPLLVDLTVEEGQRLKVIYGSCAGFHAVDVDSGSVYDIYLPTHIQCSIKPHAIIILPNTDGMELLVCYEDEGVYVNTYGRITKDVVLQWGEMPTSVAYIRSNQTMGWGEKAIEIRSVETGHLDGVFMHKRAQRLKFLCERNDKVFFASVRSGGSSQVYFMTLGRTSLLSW
UniProt Q9Y2H9, sequence (whole entry, looked up): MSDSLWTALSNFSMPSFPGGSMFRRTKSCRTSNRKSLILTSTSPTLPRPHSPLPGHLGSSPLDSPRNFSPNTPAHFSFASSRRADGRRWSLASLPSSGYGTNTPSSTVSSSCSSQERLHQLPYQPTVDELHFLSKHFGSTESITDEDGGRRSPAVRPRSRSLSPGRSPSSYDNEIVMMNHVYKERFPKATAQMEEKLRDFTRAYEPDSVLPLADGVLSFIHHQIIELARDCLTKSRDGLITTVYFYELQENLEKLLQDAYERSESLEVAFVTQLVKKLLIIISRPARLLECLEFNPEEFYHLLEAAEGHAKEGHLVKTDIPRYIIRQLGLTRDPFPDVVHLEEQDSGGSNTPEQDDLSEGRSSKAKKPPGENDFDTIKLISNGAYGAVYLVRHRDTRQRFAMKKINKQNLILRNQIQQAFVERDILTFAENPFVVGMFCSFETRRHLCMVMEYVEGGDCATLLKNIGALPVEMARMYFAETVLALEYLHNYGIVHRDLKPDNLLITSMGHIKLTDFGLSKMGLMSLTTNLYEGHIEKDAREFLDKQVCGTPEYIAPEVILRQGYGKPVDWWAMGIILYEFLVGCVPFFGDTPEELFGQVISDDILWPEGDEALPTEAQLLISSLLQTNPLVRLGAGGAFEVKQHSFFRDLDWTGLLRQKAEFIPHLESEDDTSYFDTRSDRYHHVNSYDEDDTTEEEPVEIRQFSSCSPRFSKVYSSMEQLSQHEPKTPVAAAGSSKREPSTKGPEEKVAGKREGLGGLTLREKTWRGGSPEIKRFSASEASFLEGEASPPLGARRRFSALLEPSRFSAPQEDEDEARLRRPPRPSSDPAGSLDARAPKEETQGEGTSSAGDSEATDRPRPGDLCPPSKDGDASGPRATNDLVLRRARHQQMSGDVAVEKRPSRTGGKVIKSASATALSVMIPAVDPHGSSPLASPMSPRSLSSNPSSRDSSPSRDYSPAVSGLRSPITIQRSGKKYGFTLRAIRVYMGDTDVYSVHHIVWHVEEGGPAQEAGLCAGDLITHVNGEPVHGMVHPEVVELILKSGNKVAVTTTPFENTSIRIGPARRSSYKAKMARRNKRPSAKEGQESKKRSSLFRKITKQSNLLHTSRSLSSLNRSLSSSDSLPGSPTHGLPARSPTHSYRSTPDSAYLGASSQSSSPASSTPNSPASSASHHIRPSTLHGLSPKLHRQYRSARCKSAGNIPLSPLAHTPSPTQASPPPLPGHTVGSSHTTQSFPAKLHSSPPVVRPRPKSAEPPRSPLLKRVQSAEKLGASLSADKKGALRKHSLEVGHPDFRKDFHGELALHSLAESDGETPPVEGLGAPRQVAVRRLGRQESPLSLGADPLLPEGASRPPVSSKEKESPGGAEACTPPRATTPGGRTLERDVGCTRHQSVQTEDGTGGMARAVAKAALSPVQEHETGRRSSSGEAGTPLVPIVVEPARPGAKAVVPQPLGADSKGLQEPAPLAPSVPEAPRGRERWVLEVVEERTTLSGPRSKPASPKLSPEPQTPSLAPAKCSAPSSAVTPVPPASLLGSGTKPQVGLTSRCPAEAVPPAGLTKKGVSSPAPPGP
UniProt Q9P1W9, sequence (whole entry, looked up): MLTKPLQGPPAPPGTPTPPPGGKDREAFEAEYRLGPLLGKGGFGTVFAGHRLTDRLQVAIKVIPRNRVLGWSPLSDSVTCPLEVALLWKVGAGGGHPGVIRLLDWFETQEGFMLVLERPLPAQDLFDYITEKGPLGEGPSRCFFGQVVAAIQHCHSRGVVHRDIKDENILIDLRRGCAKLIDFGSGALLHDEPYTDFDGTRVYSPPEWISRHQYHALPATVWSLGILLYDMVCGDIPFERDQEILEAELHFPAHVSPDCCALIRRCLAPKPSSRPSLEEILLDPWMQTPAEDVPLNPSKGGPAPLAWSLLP

Block 1 — method: competition protein-binding microarray; form: double-stranded DNA, one strand shown; medium: in vitro; tested at: 2 µM; added: Pho4 competitor, 0.05 µM; direction: higher = stronger binding; quantity: fluorescence intensity; all sequences stand within: … GTCTTGATTCGCTTGACGCTGCTG
Target: Centromere-binding protein 1, full length, His-tagged (CBF1, Saccharomyces cerevisiae, UniProt P17106, residues 1-351)
UniProt P17106, sequence (whole entry, looked up): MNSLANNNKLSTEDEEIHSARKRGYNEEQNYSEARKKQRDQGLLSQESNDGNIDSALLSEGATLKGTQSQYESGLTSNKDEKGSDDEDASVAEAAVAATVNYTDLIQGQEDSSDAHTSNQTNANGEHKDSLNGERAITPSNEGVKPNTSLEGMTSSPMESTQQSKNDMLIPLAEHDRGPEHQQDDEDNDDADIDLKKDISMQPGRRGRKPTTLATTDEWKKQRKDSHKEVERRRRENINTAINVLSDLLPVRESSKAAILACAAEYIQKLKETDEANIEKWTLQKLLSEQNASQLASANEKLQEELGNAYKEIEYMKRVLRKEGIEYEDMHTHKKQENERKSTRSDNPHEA
Setting: whole 60-bp probe, lowest competitor level
Sequence = AAATTACTAAGTTGCTCTGTGGGTGACGCCGTATGA; value = 62.6 a.u.
Sequence = CCCAGAGATATACCACACATGAGACTGAAAAAAGCA; value = 99.1 a.u.
Sequence = TAATGCGCTTGCATGTATGTGCGTACATGTATGTGT; value = 82.5 a.u.
Sequence = AAGAAGGGTATTTGTCACGTCAAGCCAGTGAGATGT; value = 81.5 a.u.
Sequence = AGAAATGCCATTTTGCACGTGACGAAACAAATTGTG; value = 6740 a.u.
Sequence = CGTCCTAGCGATTGATTTGTGGGTGCCATGAGGAAG; value = 77.5 a.u.
Sequence = CTATTTTTCCTCTGGCGCGTGAATAGCCCGCAGAGA; value = 80.5 a.u.
Sequence = TTGGCTTAAATTTGTCACGTGAAGCTCTATTTTTTT; value = 6820 a.u.

Block 2 — observed: cell-free assay; method: competition with immobilised ligand; tested at: 1 µM; quantity: remaining binding
Compound: CN(c1ccnc(CNc2nc(Nc3ccc4c(c3)CC(=O)N4)ncc2C(F)(F)F)n1)S(C)(=O)=O
target = MAP4K4 (Homo sapiens, UniProt O95819); value = 82%
target = Ribosomal protein S6 kinase alpha-1, N-terminal kinase domain (RPS6KA1, Homo sapiens, UniProt Q15418); value = 100%
target = PIM2 (Homo sapiens, UniProt Q9P1W9); value = 100%
target = MAST1 (Homo sapiens, UniProt Q9Y2H9); value = 69%

Block 3 — observed: enzyme activity; action: inhibitor; tested at: 0.5 µM; reference: control; quantity: remaining activity
Target: Ribosomal protein S6 kinase alpha-3 (RPS6KA3, Homo sapiens, UniProt P51812)
UniProt P51812, sequence (whole entry, looked up): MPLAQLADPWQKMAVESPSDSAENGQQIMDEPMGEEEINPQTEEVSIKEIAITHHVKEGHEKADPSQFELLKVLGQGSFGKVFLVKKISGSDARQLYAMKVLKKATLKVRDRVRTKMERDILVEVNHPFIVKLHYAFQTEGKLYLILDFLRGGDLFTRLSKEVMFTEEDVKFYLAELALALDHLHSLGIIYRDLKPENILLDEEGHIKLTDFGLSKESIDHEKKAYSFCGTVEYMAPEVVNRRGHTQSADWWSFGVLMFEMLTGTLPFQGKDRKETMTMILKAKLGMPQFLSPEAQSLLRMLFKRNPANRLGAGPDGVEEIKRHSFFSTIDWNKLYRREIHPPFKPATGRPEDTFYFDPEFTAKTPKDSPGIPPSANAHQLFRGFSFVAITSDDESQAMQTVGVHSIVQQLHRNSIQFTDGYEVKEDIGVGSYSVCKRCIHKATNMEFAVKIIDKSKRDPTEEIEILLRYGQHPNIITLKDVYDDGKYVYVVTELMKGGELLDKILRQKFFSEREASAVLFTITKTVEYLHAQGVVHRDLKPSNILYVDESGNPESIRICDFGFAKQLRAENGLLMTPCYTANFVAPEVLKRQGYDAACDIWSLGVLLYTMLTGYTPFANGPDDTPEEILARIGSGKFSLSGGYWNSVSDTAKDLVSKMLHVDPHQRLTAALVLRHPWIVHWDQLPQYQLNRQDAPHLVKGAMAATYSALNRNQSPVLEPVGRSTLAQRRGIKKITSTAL
Compound = Cn1c2ccccc2c2c3c(c4c5ccccc5n(CCC#N)c4c21)CNC3=O; value = 5.93%
Compound = CNC(=O)c1cc(Oc2ccc(NC(=O)Nc3ccc(Cl)c(C(F)(F)F)c3)cc2)ccn1; value = 100%
Compound = O=C(Nc1cccc(Nc2cc(Nc3cccc(C(F)(F)F)c3)ncn2)c1)C1CC1; value = 105%
Compound = Cc1cccc(-c2[nH]c(C(C)(C)C)nc2-c2ccc3c(c2)OCO3)n1; value = 82.4%
Compound = O=C1NC(=O)C(c2cn(CCCO)c3ncccc23)=C1c1cnccn1; value = 91.3%
Compound = Cn1sc(=O)n(Cc2ccccc2)c1=O; value = 97.5%
Compound = NCCNc1ncc(C(N)=O)c(Nc2cccc(C(F)(F)F)c2)n1; value = 72.4%
Compound = O=c1c2ccccc2[nH]c(=S)n1CCN1CCC(=C(c2ccc(F)cc2)c2ccc(F)cc2)CC1; value = 99.8%
Compound = Cc1ccc(Nc2nccc(N(C)c3ccc4c(C)n(C)nc4c3)n2)cc1S(N)(=O)=O; value = 99.1%
Compound = Nc1[nH]nc2nc3ccccc3nc12; value = 88%
Compound = C#Cc1cccc(Nc2ncnc3cc(OCCOC)c(OCCOC)cc23)c1; value = 100%
Compound = OCC(O)CCON=C1C(c2c(O)[nH]c3ccccc23)=Nc2ccccc21 (stereo not shown); value = 18.3%
Compound = O=C(O)c1ccc2c3c1cccc3c(=O)n1c3ccccc3nc21; value = 95.5%
Compound = COc1cc2ncnc(Nc3ccc(Oc4ccccc4)cc3)c2cc1OC; value = 97.8%

Block 4 — method: RNA Bind-n-Seq; form: RNA; medium: in vitro; tested at: 1 µM; setting: whole 134-nt RNA, ends assumed; added: 150 mM KCl; reference: input library; direction: higher = stronger binding; quantity: log2 enrichment
Target: Ras GTPase-activating protein-binding protein 1, C-terminal RGG region (G3BP1, Homo sapiens, UniProt Q13283)
UniProt Q13283, sequence (whole entry, looked up): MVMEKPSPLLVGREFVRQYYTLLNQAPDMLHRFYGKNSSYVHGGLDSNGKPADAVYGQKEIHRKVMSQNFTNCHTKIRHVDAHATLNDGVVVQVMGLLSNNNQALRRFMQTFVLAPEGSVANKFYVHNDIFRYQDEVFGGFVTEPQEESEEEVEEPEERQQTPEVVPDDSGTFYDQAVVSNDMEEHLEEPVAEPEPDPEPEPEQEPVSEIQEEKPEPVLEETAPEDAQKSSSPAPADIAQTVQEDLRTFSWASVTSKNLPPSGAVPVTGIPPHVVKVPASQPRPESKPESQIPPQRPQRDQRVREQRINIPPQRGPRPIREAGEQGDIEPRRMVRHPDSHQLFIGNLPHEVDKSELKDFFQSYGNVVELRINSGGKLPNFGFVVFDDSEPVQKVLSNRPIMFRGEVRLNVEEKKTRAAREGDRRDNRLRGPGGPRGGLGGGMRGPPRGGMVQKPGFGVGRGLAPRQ
All sequences stand within: GGGAGUUCUACAGUCCGACGAUC … UGGAAUUCUCGGGUGUCAAGG
Sequence = CUCAAGUCCUGUGCUACACAUCGUAUGUACCGAAUCGGGGAGGAGGGGAGGGGAAAGUAUUAUGUUACGCCGUUCGGAUCUGCACUUCCA; value = 0.604
Sequence = CAAGUCCUGUGCUACACAUCGUAUGUACCGAAUCGGAAAGGUUUUUGGAAAAAGGAAAGUAUUAUGUUACGCCGUUCGGAUCUGCACUUC; value = -1.82
Sequence = CAAGUCCUGUGCUACACAUCGUAUGUACCGAAUCGGUUUGGAAAAAGGAAAAAGGAAAGUAUUAUGUUACGCCGUUCGGAUCUGCACUUC; value = -1.75
Sequence = AGUCCUGUGCUACACAUCGUAUGUACCGAAUCGGGUUUUUGGGUUUGGGAAAAAGGGAAAGUAUUAUGUUACGCCGUUCGGAUCUGCACU; value = 0.333
Sequence = AGUCCUGUGCUACACAUCGUAUGUACCGAAUCGGGUUUUUGGGUUUUUGGGUUUUUGGAAAGUAUUAUGUUACGCCGUUCGGAUCUGCAC; value = -1.11
Sequence = AAGUCCUGUGCUACACAUCGUAUGUACCGAAUCGGAGGAAAAAAAGGUUUUUUUGGAAAGUAUUAUGUUACGCCGUUCGGAUCUGCACUU; value = -2.12
Sequence = UGGGAGGUGGAUUUUGUUUAUUUUUUUAUCUCAUUUCCAGGGGUGGGAAUUUUUUUUUAAUAUGUGUCAUGAAUAAAGUUGUUUUUGAAA; value = 4
Sequence = CAAGUCCUGUGCUACACAUCGUAUGUACCGAAUCGGGUUUUUUUGGGUGGGAGGGAAAGUAUUAUGUUACGCCGUUCGGAUCUGCACUUC; value = 1.09
